Published values of several laboratories.
Lines come from different studies, so protocols differ. ± gives the spread as reported.

SMILES	assay	test system	conditions	how to read	quantity	value
C=CC(=O)Nc1cc(Nc2nccc(-c3cn(C)c4ccccc34)n2)c(OC)cc1N(C)CCN(C)C		Sprague-Dawley rat, male, plasma	oral, 10 mg/kg		apparent volume of distribution	112 ± 24.3 L/kg
COc1cc2c(Nc3ccc(Br)cc3F)ncnc2cc1OCC1CCN(C)CC1		male FVB mice, brain	intravenous, 5 mg/kg		elimination rate constant	0.42 h⁻¹
C[C@@]12C[C@@]3(O)O[C@@H](O1)[C@]1(COC(=O)c4ccccc4)[C@H]3C[C@@]12O[C@@H]1O[C@H](CO)[C@@H](O)[C@H](O)[C@H]1O		extracted rat plasma, autosampler	750 ng/mL, 24 h, 4 °C, post-preparative stability, middle QC		accuracy	98.3 % nominal
CN1CCN(Cc2ccc(-c3cnc4[nH]cc(-c5cccc(F)c5)c4c3)cc2)CC1	metabolic stability	CD-1 mouse, liver microsomes	20 µM, pH 7.4		half-life	≥ 0.5 h
CCCC[C@H](NC(C)=O)C(=O)N[C@H]1CCC(=O)NC[C@@H](C(=O)N[C@@H](Cc2c[nH]c3ccccc23)C(N)=O)NC(=O)[C@H](CCCNC(=N)N)NC(=O)[C@@H](Cc2ccccc2)NC(=O)[C@H](Cc2c[nH]cn2)NC1=O		beagle dog, male, plasma	subcutaneous, 8.0 mg/kg daily, day 28		Cmax	275 ng/mL
CCNC(=O)[C@@H]1CCCN1C(=O)[C@H](CCCNC(=N)N)NC(=O)[C@H](CC(C)C)NC(=O)[C@@H](CC(C)C)NC(=O)[C@H](Cc1ccc(O)cc1)NC(=O)[C@H](CO)NC(=O)[C@H](Cc1c[nH]c2ccccc12)NC(=O)[C@H](Cc1c[nH]cn1)NC(=O)[C@@H]1CCC(=O)N1		membrane in isopropyl myristate	1 mg/mL, 12 h, pH 6.8, 37 °C, receiver 0.5% Tween 80		permeated fraction	24.3%
NCCCC[C@@H]1NC(=O)[C@@H](Cc2c[nH]c3ccccc23)NC(=O)[C@H](c2ccccc2)NC(=O)[C@@H]2C[C@@H](OC(=O)NCCN)CN2C(=O)[C@H](Cc2ccccc2)NC(=O)[C@H](Cc2ccc(OCc3ccccc3)cc2)NC1=O	radioimmunoassay	healthy human male volunteers, plasma	subcutaneous, 1200 µg		alpha half-life	1.7 ± 0.4 h
COc1cc2ncnc(Nc3ccc(F)c(Cl)c3)c2cc1NC(=O)/C=C/CN1CCCCC1	poziotinib M1 formation, inhibitor	rat liver microsomes	50 min, pH 7.4, 37 °C, with: poziotinib 100 µM		IC50	11.4 µM
CCCCCCCCCCCCCCC[C@H](O)[C@@H](N)CO		human, phase I, plasma	intravenous, 120 mg/m^2, day 1, monotherapy		AUC	21.2 µM·h
CN(CCOc1ccc(CC2SC(=O)NC2=O)cc1)c1ccccn1 (stereo not shown)	parallel tube model	human	from oral clearance		intrinsic hepatic clearance	746 L/h
CO[C@]12C[C@@H](COC(=O)c3cncc(Br)c3)CN(C)[C@@H]1Cc1cn(C)c3cccc2c13	cytochrome c release, ELISA	BALB/cByJ female mouse liver mitochondria	30 min	baseline: alamethicin maximal release	EC20	> 200 µM
O=C(/C=C/c1ccc(O)c(O)c1/C=C/c1ccc(O)c(O)c1)O[C@H](Cc1ccc(O)c(O)c1)C(=O)O	UPLC-MS/MS	Wistar rat, microcirculation dysfunction model, plasma	oral, 100 mg/kg Salvia miltiorrhiza stem-leaf extract FS		AUC(0-t)	132 ± 29.3 ng·h/mL
COc1cc(/C=C/C(=O)CC(=O)/C=C/c2ccc(O)c(OC)c2)ccc1O	mitochondrial swelling	BALB/cByJ female mouse liver mitochondria	30 min, with: succinate + rotenone	baseline: CaCl2 maximal swelling	EC20	> 200 µM
CCOc1ccc2c(c1)C(C)=CC(C)(C)N2	LC-MS/MS	laying hens, kidney	oral, 50 mg/kg feed, 56 days		residue concentration	189.5 ± 1.3 ng/g
CC(=O)CCc1ccc(O)cc1		normal-weight male C57BL/6J mice, brain	oral, 200 mg/kg		AUC(0-12 h)	33.7 ± 2.3 nmol·min/g
Cc1c(Cl)cccc1Nc1ccccc1C(=O)O	mitochondrial swelling	BALB/cByJ female mouse liver mitochondria	30 min, with: succinate + rotenone	baseline: CaCl2 maximal swelling	EC20	335 µM
